Results from different studies.
Lines come from different studies, so protocols differ. ± marks the error that the study gave.

| SMILES | test | test system | conditions | AUC(0-24) |
| --- | --- | --- | --- | --- |
| Cn1c(=O)oc2ccc(-c3ccc(C[C@@H](C#N)NC(=O)[C@@H]4CNCCCO4)cc3)cc21 | HPLC-MS/MS | healthy male humans, plasma | oral, 10 mg | 2.83 µM·h |
| Cc1cc(Nc2cc3ncccc3c(N[C@@H]3C[C@H]4CC[C@@H](C3)N4CCC#N)n2)n[nH]1 |  | human, plasma | 300 mg single dose, mean | 20.9 ng·h/mL |
| N#Cc1ccc2c(c1)[C@H]1CCCN(C(=O)c3ccc4[nH]cnc4c3)[C@H]1C2 |  | human, plasma | oral, 20 mg once daily, after first dose | 13.2 µM·h |
| CO[C@H]1CC[C@H](N2C(=O)CNc3ncc(-c4ccc(C(C)(C)O)nc4)nc32)CC1 |  | human, plasma | oral, 30 mg, day -1, geometric mean | 1140 ng·h/mL |
| Cc1ccc([C@@H]2O[C@H](CO)[C@@H](O)[C@H](O)[C@H]2O)cc1Cc1ccc(-c2ccc(F)cc2)s1 |  | human, maintenance hemodialysis patients | oral, 300 mg once daily, day 8, steady state, mean | 20900 ng·h/mL |
| CC(C)(Sc1ccncc1-c1ccc(C#N)c2ccccc12)C(=O)O |  | human, plasma | oral, 10 mg once daily, added: febuxostat 20 mg | 217 ng·h/mL |
| CC(=O)O[C@H]1C(=O)[C@@]2(C)[C@H]([C@H](OC(=O)c3ccccc3)[C@]3(O)C[C@H](OC(=O)[C@H](O)[C@@H](NC(=O)c4ccccc4)c4ccccc4)C(C)=C1C3(C)C)[C@]1(OC(C)=O)CO[C@@H]1C[C@@H]2O |  | human, plasma | intravenous, 80 mg/m^2, day 8, DL3, added: nilotinib 400 mg | 2.77 ± 0.783 µM·h |
| Cc1nc(-c2ccc(OCC(C)C)c(C#N)c2)sc1C(=O)O |  | human, plasma | oral, 10 mg once daily, added: verinurad 2.5 mg | 1260 ng·h/mL |
| C[C@@H]1CCO[C@H]2Cn3cc(C(=O)NCc4ccc(F)cc4F)c(=O)c(O)c3C(=O)N12 |  | human paediatric patients, weight sample E to under sample F kg, plasma | oral, 25 mg film-coated tablet, steady state, geometric mean, population PK post-hoc, N 1 | 27900 ng·h/mL |
| CC(=O)O.NC(=O)c1cnc(N[C@@H]2CCCC[C@@H]2N)nc1Nc1cccc(-n2nccn2)c1 |  | human, plasma | oral, 33 mg once daily | 624 ng·h/mL |
| COc1cc(C(=O)NC2CCN(C)CC2)c(F)cc1Nc1ncc(C(F)(F)F)c(Oc2cccc3c2C(=O)N(C)C3)n1 |  | human patients | oral, 300 mg, cycle 1 day 1, geometric mean | 51.2 µM·h |
| CC(C)[C@H](N)C(=O)NCCCS(=O)(=O)O |  | human both sexes, plasma | oral, 340 mg BID days 8-13, QD day 14, day 14, fed capsule | 13800 ng·h/mL |

A few entries again:
| SMILES | test | test system | conditions | AUC(0-24) |
| --- | --- | --- | --- | --- |
| CO[C@H]1CC[C@H](N2C(=O)CNc3ncc(-c4ccc(C(C)(C)O)nc4)nc32)CC1 |  | human, plasma | oral, 30 mg, day -1, geometric mean | 1140 ng·h/mL |
